Results pooled from the literature.
A part holds a random share of what one study measured. Changes are numbered by the printed parent chain.

Series 1
Target: RNA binding protein fox-1 homolog 2, RRM domain, GST-SBP tag (RBFOX2, Homo sapiens, UniProt O43251-10, residues 100-194)
Method: RNA Bind-n-Seq
Form: RNA
Medium: in vitro
Tested at: 365 nM
Notes: natural RNA segment, single round, ends assumed
Baseline: no-protein control
Reading: higher = stronger binding
Quantity: RBNS enrichment (R)
Target sequence (chain): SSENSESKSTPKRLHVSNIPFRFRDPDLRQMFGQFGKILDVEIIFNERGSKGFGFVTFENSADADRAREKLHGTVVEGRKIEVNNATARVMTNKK
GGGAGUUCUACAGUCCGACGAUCGACAUCAGGACCUGAGAUGACCGCUGUGUGGCGCUCUCUCCCUGGGCAGGGUGGAUGCCACAGGCCCCUCUGGCUCCCAGGUGCUGCUUCUCCACAGGUGCGGCCUGGCCUGGAAUUCUCGGGUGCCAA: 0.304
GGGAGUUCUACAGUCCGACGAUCAAAUGAAGGCUCCCAUGAGUCUUCACUAGAAAGAUGUGGUCCCCAUCCCCACCCUGACUGAGACCUGUGAAGAUGCAGAGUGGCAGGGAAGGUCACAGAGCUCCACCACCUGGAAUUCUCGGGUGCCAA: 0.272
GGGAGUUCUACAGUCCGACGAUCAAAGUCACCUUUUUGCUGAUGAAAAGAACAUAUGUAUAAUAUAGUUGAACUCGAAGACAACUUAAAGUUUAGGGAAAGGAGAAUAUUUUUGGCAGAACAUCCGUCAGUACUGGAAUUCUCGGGUGCCAA: 0.438
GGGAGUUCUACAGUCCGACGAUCAUUGUAACGCCUAAUAAUAUUUCUGUGAGCCUUUAAUGUGAUUUAUAAGAUGGCCGAAUUACUGAAAUCACCAUUAUACCUCUUCCAUAAAACGACUCCAAAGUUAGACCUGGAAUUCUCGGGUGCCAA: 0.486
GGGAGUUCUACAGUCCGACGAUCAGAUAACUCACUAAGGGGUAAAAUAUGAAAUAUCAAAUCCUAAAAAGGAUAUUUAUAAUUAAAACAGCCUGUCAUGAGGCAACUGUGAGUGGAACAUCUGGGAAUUUGAGUGGAAUUCUCGGGUGCCAA: 0.442
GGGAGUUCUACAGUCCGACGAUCCAGUUUUGUUUUCUGGGUUUCUUCCCCCUUUGUAGGAAUCAGAUACCUUUUGUAGAAAAAAAUGGCUUAUGCCACGUAAAGGUGAAUUUUUAGAAACCACCUUCUAGGCGUGGAAUUCUCGGGUGCCAA: 0.659
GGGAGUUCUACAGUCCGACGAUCUUUUUCAACCUUUUCCAUUUGCUGAGUGAAGAUGGUCACUAACUCUAUGCUGCAAUAACGGGAGAGAUCCUGUCCAAGGAAGUCUAACGUCUAUAAAAAUGGAGUCACUGUGGAAUUCUCGGGUGCCAA: 0.261
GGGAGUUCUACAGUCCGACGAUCCCCAGAGCAGCACAAUGCCCGUCUGAGCCCCACGUGGCAGGAGCCUCUGGGACGGGGCACACACAGGCCCAGCCUCUGUGCUGUCUCCUCCUCCGUGCGCCUCAGACUCGUGGAAUUCUCGGGUGCCAA: 0.368
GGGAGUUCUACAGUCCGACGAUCAAAAAAAGAAAGAAAGAUGCUGCUCAUUUGCAUGCUCACUUACAUAUAUUUGCAUGUUCACUGACCCAGCCUGAGCUCUCCCCAGCCUCGUGGGUGGUGACUUUUCCUGCUGGAAUUCUCGGGUGCCAA: 0.711
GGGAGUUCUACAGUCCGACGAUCAUUCUCUUGUCAUAGUCCUGGUUUGCCAGCUGACUACAGGAUAGACCCAGCUGUCUGGCACUCAAACGGUCUCUGCAGCCACAGUUUUAUCAAGUAUCCUGUAUGUGUUCUGGAAUUCUCGGGUGCCAA: 0.443
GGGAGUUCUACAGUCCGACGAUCGGUAUUUUAUCACACCUUGACACCUUAUAUAUGAGCCUAUUAGGAGCUGCAGGUGGUUUCAUAGGGUAAAAUCCAAGAAAAGAGAAGGAUGUGUGGGGUUUCUAUUAGAAUGGAAUUCUCGGGUGCCAA: 0.749
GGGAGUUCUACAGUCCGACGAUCCAAUGGAUGUAAACAUUUUUGAAAGAAUAAAGCAGAAUUAUAUAAUAUGAAAUGCUAUGUAAAGUUUUCUAUGUAAAAAAAUAUUAUGUAUAAUACUGUUAAAUACCCCAUGGAAUUCUCGGGUGCCAA: 0.661

Series 2
Target: Fragile X messenger ribonucleoprotein 1, C-terminal low-complexity region (Fmr1, Mus musculus, UniProt P35922)
Method: RNA Bind-n-Seq
Form: RNA
Medium: in vitro
Tested at: 200 nM
Notes: whole 134-nt RNA, ends assumed
Added: 150 mM KCl
Baseline: input library
Reading: higher = stronger binding
Quantity: log2 enrichment
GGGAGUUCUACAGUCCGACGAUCAGUCCUGUGCUACACAUCGUAUGUACCGAAUCGGGUGGGAAAAAAAGGGAAAAAGGGAAAGUAUUAUGUUACGCCGUUCGGAUCUGCACUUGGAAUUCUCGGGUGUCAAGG: 0.27
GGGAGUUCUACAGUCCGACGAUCCCUGUGCUACACAUCGUAUGUACCGAAUCGGGGUUUGGGGAAAAAAAGGGGAAAAAGGGGAAAGUAUUAUGUUACGCCGUUCGGAUCUGCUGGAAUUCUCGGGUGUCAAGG: 0.0811
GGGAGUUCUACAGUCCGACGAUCUCCUCAAGUCCUGUGCUACACAUCGUAUGUACCGAAUCGGGAGGAGGGGAGGAAAGUAUUAUGUUACGCCGUUCGGAUCUGCACUUCCAGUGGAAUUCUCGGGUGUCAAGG: 0.244
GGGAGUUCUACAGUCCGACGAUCCUCAAGUCCUGUGCUACACAUCGUAUGUACCGAAUCGGGGUGGGGUGGGGUGGAAAGUAUUAUGUUACGCCGUUCGGAUCUGCACUUCCAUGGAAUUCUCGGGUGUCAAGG: 1.02
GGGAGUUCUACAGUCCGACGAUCUCCUGUGCUACACAUCGUAUGUACCGAAUCGGUUUUUUUGGUUUUUUUGGAAAAAAAGGAAAGUAUUAUGUUACGCCGUUCGGAUCUGCAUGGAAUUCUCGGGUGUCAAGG: -0.67
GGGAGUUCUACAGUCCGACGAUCCCUCAAGUCCUGUGCUACACAUCGUAUGUACCGAAUCGGGCGGGCGGGCGGGAAAGUAUUAUGUUACGCCGUUCGGAUCUGCACUUCCAGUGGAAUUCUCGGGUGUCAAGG: 1.09
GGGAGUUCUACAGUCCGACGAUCUCAAGUCCUGUGCUACACAUCGUAUGUACCGAAUCGGGGCCGGCCGGGCCGGGGAAAGUAUUAUGUUACGCCGUUCGGAUCUGCACUUCCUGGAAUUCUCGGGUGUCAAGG: -0.0817
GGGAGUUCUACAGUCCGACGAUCGCAGGAAGUAAAAACAAAUGGAAAUGCUUCGGAUAGUGGCAGGGGUUGGGGUUGCUAAGGAAAGGGUGGGAUGGGAGUGGGUAAAGAGUUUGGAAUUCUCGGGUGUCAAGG: 0.0567
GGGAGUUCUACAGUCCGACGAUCCACAGACAACACGCACCCACACAGACACAGAGGGAAGGGGUUGGGAUGUGGACAGGGUGCACAGCAGGGCGGGGUAGGACCCCAGCCCCUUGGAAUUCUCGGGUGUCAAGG: 0.921
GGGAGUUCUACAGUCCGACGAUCCUGUGCUACACAUCGUAUGUACCGAAUCGGGUUUUUUUGGUUUUUUUGGGGUUUUUUUGGGAAAGUAUUAUGUUACGCCGUUCGGAUCUGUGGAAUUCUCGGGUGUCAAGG: -0.866
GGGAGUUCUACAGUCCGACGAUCGCAGGAGGUAAAAACAAAUGGAAAUGCUUCGGAUAGUGGCAGGGGUGGGGGUUGCUAAGGAAAGGGUGGGAUGGGAGUGGGUAAAGAGUUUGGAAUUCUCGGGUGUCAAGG: 0.147
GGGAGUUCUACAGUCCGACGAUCAAGUCCUGUGCUACACAUCGUAUGUACCGAAUCGGGAAAAGGGAAAAGGGGAAAAGGAAAGUAUUAUGUUACGCCGUUCGGAUCUGCACUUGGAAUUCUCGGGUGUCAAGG: -0.22
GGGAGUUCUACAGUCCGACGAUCAGUCCUGUGCUACACAUCGUAUGUACCGAAUCAAACCCCCAAAUUUAAACCCCCAAAAAAGUAUUAUGUUACGCCGUUCGGAUCUGCACUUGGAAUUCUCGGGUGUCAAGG: -0.247
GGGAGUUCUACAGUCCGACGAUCUCCUCAAGUCCUGUGCUACACAUCGUAUGUACCGAAUCGGUUUGGUGGAGGAAAGUAUUAUGUUACGCCGUUCGGAUCUGCACUUCCAGCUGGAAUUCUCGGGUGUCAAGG: -0.409

Series 3
Target: CCNF, cyclin fold, Cln2 fusion (human)
Method: yeast growth competition, sequencing
Medium: yeast
Notes: strong parent motif
Baseline: not given
Reading: higher = stronger binding
Quantity: normalised enrichment score
Parent: PKMYT1 docking peptide (human); SFEPRNLLSLFED; partner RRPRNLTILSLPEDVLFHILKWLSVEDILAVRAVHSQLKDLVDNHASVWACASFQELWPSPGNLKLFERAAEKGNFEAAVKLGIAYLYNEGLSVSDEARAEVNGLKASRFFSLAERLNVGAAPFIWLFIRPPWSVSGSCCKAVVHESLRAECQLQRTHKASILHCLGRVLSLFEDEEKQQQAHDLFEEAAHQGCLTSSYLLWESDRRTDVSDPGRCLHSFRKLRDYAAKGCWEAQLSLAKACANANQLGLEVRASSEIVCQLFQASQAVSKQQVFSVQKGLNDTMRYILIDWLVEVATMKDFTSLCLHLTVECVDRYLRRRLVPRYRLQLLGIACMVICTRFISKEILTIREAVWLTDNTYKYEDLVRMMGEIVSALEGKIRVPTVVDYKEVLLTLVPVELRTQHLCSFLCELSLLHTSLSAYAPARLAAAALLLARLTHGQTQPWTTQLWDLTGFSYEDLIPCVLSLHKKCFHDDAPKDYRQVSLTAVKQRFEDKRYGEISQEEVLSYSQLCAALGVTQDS
P4S: -1.04
R5P: -0.621
E3I: 1.16
P4Y: -0.899
L10W: 0.559
D13G: 2.04
L10K: -1.18
D13Y: 2.62
L8H: -0.311
E3N: -0.19
E12P: 0.281
S9Y: 1.33
F2W: 0.0235
S9A: 0.481
R5C: -0.347
R5M: -0.518
L10F: 0.962
D13T: 0.469
N6S: 2.71
L7Y: -1.13
S1E: -0.221
P4V: 1.27
S9K: 0.865
F2P: -0.499
L10S: -0.69

Series 4
Target: Histone acetyltransferase KAT6A, winged helix 2, GST fusion (KAT6A, Homo sapiens, UniProt Q92794, residues 85-181)
Method: protein binding microarray
Form: double-stranded DNA, one strand shown
Medium: in vitro
Tested at: not given
Notes: 8-mer, flanks averaged, mean of 2 arrays, mostly near background
Baseline: not given
Reading: higher = stronger binding
Quantity: E-score
Target sequence (chain): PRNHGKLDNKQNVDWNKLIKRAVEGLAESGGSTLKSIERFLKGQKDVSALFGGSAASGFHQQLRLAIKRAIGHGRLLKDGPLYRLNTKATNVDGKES
GGATTACC: -0.0815
CATATATG: -0.00983
CAGACCCG: 0.151
AATGCGCG: 0.141
CCAACGAC: -0.101
GCTTGTCA: 0.193
CCGAATTA: 0.0119
ACCTGAGT: 0.0279
GACTCAAC: -0.00983
AAGCTAAT: 0.114
AACCTTCA: -0.0303
AGAGACCA: 0.0274
AACATAGG: -0.0923
TATTAGCA: 0.0583
CTGGGGGA: -0.0197
GGCATTCA: 0.02

Series 5
Target: Prothrombin, mature alpha-thrombin (F2, Homo sapiens, UniProt P00734)
Method: aptamer microarray, sandwich
Form: DNA with 2'F-ANA
Medium: in vitro
Tested at: 200 nM
Notes: whole 15-mer aptamer, many near background
Added: Cy3 exosite-II aptamer, 400 nM
Reading: higher = stronger binding
Quantity: mean fluorescence intensity
Strand: GGTTGGTGTGGTTGG
2'F-ANA at 1 2 3 5 10 11 12 13: 58.3 a.u.
2'F-ANA at 1 3 5 6 8 9 10 12 14: 46.8 a.u.
2'F-ANA at 3 4 7 8 10 11 14: 230 a.u.
2'F-ANA at 1 2 4 8 10 11 12 13 14 15: 49.9 a.u.
2'F-ANA at 1 2 3 6 7 10 12: 86.4 a.u.
2'F-ANA at 2 5 7 14 15: 94.7 a.u.
2'F-ANA at 1 2 3 5 8 13: 53.3 a.u.
2'F-ANA at 2 4 6 9 10 11 13 15: 182 a.u.
2'F-ANA at 1 9 10 11 12 13 14 15: 49.8 a.u.
2'F-ANA at 1 2 3 4 5 6 7 10 11 15: 46.2 a.u.
2'F-ANA at 1 2 3 5 6 7 9 12 13 14 15: 49.1 a.u.
2'F-ANA at 1 2 4 5 6 9 11 12 14: 51.2 a.u.
2'F-ANA at 1 3 4 5 7 9 10 14 15: 42.6 a.u.
2'F-ANA at 1 2 4 6 7 8 9 10 11 12 15: 73.9 a.u.
2'F-ANA at 4 5 6 7 11 12 13 14: 51.6 a.u.
2'F-ANA at 2 5 8 9 11 13 14: 43 a.u.
2'F-ANA at 3 5 11 15: 105 a.u.
2'F-ANA at 1 3 7 8 12 13 15: 655 a.u.
2'F-ANA at 1 2 3 5 6 8 9 10 14: 71.4 a.u.
2'F-ANA at 3 4 10 11 12 14 15: 202 a.u.
2'F-ANA at 3 4 6 7 9 12 13 14: 264 a.u.
2'F-ANA at 1 4 5 6 9 12 13 15: 72 a.u.
2'F-ANA at 1 2 5 8 10 11 12: 52.7 a.u.
2'F-ANA at 1 2 4 8 10 13 15: 53.8 a.u.
2'F-ANA at 2 3 4 6 8 12 13 15: 599 a.u.
